Experimental data pooled from the literature.
Parts stem from different laboratories: compare values within a part only. Substitutions count along the parent as printed.

Block 1 — method: protein binding microarray; form: double-stranded DNA, one strand shown; matrix: in vitro; concentration: not given; relative to: not given; reading: higher = stronger binding
Target: Histone acetyltransferase KAT6A, winged helix 2, GST fusion (KAT6A, Homo sapiens, UniProt Q92794, residues 85-181)
Notes: 8-mer, flanks averaged, mean of 2 arrays, mostly near background
Residues (chain): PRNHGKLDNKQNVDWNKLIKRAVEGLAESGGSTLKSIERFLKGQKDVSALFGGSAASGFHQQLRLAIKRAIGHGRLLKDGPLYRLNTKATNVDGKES
Strand | E-score
ACAAGGGG | -0.0941
CTTGAGTC | -0.0936
TCAGCGCA | -0.0101
CTTTATCA | 0.221
AAGTGCAC | -0.0284
TAGAGCGA | -0.102
GTTCAATA | -0.0705
AGCAGAGG | 0.0809
ATCTTAAG | -0.0539
GGTGAGGA | 0.147
GCAGTTTA | 0.079
AACCTGCG | 0.0308
AAACAAGT | -0.069
CACCCTAG | 0.0581
AAGCTAGA | 0.0136
ACCTACTA | -0.186
TGAGACCA | -0.00931
CCGACGGC | 0.147
TAGATACA | -0.145
GTCACCAC | -0.0234
CGACTGAA | 0.138
AGCCGTTA | 0.00665
ACCAAAGT | -0.109
CCGTTGTC | 0.0644
GAGGCGCA | 0.0664

Block 2 — target: CEBPE, bZIP domain (human); method: DHFR protein complementation; matrix: yeast; relative to: wild-type JUN-FOS pair; reading: higher = stronger binding
Notes: single substitutions, most at no-binding floor
Starting sequence: JUN, bZIP domain (human); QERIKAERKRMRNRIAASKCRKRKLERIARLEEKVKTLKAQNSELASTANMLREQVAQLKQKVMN; partner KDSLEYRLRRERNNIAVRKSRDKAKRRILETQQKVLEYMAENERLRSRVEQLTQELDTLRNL
Change | binding fitness [natural log]
E54R | -1.28
V56E | -1.48
Q41N | -1.31
S43Q | -0.925
K34M | -1.1
A29P | -1.46
E44V | -1.27
K34C | -1.26
K34Q | -1.02
L52W | -1.51
L31D | -1.36
N42K | -1.26
T37L | -0.944
L38E | -1.51
Q41C | -1.42
E32C | -1.4
N42P | -1.5
E54N | -1.26
A46I | -1.1
M51T | -0.982
A57W | -1.31
E33H | -1.28
Q55W | -1.29
R30V | -0.959
E32Q | -1.32

Block 3 — method: RNA Bind-n-Seq; form: RNA; matrix: in vitro; concentration: 365 nM; relative to: no-protein control; reading: higher = stronger binding
Target: RNA binding protein fox-1 homolog 2, RRM domain, GST-SBP tag (RBFOX2, Homo sapiens, UniProt O43251-10, residues 100-194)
Notes: natural RNA segment, single round, ends assumed
Construct (chain): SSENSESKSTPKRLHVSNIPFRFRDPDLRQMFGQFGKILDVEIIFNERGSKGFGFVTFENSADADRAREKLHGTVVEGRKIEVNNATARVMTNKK
Strand | RBNS enrichment (R)
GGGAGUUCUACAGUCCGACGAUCAACAGUCCUAAAAUGAUGGAACUAUUUAAAAGGGUGUCAACUCUUAAGAGAACACCUGUGGUUUAAAUGUUCUUUUUCUGCUUCCUUUUCUAUCUGAGAGGUCCUAACCAUGGAAUUCUCGGGUGCCAA | 0.258
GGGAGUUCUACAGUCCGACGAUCAAAUCAUGAAACUUGAACUAUUUUUCUAUUCCCUUUUUUUCUUCCCCAUUUGCUGCCUUUUUUGUUUUUGUGGGGGAAGGGUUGGGAGUAAGUUUAAACUCUUCCGAAGAUGGAAUUCUCGGGUGCCAA | 0.753
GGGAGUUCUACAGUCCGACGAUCUAUAAAGCCAGGUGUCUUAGCUAGAUAUAUUUCCAGUCUUUUAACUUUGACACUGUGAAGCUCUAAGGAUACAAUAGGAAUGAAGACAGAGGAAGAAAAACUAAAGAGUCUGGAAUUCUCGGGUGCCAA | 0.564
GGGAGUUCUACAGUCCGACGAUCAUGCUGUUCUCACUCCUCUCUUGGAAUUGUGCUGGCCCCUUAGUCUACAAUAAACUGUGCCAAUUAAAAACCUAAGGCUAAAACUGAAAGCCCUUUGAUGGGGUCUUAACUGGAAUUCUCGGGUGCCAA | 1.01
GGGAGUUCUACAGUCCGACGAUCUGUGUCCUGGGGGAGAGAUGGCCACCUCCGUGGGCUGCGAAGAGCCACCCCUUCCUCUUCCGAUUCUCCUAGCAGCCACUCAGAGAUAAUUUAAUUCCAGAUUGGAAACGUGGAAUUCUCGGGUGCCAA | 0.641
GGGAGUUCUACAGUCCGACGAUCUUUGCUAAGAGUUUAAAAUCUUAAAACCCAUAAGUGCCACUAGGAAGGAAACCCUGUAUAUACCUACAUUGACCCAAGAAAUAUUUACGCAAUCCCUAGCAGAACAUUGUUGGAAUUCUCGGGUGCCAA | 0.655
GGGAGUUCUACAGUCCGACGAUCGAUUUCAUGAAUGAAAUAAAGAUUUGUUAGUGGGAAGCAAAUAAAACACAUUAAGUUGAUUGAGUUGGACAUACGGUUCCUGAAGUAUCUUGAUUUGUGUUUUUUUUUUUUGGAAUUCUCGGGUGCCAA | 0.938
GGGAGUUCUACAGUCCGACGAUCAUCCACCCAGCCCAUUCUCUCUCCUGUCCAACCUAACCCCUUUCCUGCGGGCUUUUCCCCGGUCCCUUGAGACCUCAGCCAUGAGGAGUUGCUGUUUGUUUGACAAAGAAUGGAAUUCUCGGGUGCCAA | 0.644

Block 4 — method: universal PBM; form: double-stranded DNA, one strand shown; matrix: in vitro; concentration: 600 nM; reading: higher = stronger binding
Target: Sal-like protein 4, full length isoform A (SALL4, Homo sapiens, UniProt Q9UJQ4, residues 1-1053)
Sequence of UniProt Q9UJQ4 (whole entry, looked up): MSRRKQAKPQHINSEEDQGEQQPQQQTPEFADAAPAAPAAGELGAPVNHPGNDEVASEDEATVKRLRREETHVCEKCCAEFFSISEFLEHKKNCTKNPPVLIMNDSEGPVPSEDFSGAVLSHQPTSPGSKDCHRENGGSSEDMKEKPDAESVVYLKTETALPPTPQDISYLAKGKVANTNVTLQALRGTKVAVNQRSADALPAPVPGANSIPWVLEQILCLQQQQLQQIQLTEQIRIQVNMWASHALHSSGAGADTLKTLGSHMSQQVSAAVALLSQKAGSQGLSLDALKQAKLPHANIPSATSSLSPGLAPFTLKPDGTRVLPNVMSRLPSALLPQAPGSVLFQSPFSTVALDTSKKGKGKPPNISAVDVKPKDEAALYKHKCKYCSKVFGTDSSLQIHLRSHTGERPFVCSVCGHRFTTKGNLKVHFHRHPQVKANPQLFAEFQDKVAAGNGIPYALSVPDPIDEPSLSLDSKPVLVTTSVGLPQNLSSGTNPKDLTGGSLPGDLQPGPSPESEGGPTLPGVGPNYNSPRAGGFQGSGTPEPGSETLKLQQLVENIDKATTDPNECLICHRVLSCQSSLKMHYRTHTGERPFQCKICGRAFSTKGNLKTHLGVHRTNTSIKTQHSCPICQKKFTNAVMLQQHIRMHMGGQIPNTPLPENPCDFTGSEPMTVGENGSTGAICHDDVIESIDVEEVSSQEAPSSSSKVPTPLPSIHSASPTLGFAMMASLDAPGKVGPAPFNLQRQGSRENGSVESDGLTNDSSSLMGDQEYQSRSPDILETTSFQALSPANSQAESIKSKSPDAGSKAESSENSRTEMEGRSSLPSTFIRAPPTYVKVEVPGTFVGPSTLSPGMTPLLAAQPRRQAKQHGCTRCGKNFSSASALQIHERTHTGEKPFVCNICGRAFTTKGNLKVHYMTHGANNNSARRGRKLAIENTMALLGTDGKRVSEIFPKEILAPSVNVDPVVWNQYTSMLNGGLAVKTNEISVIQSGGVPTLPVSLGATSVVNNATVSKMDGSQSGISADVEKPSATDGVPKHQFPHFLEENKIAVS
Notes: 8-mer, flanks averaged, mean of replicates
Strand | E-score
ATACGTAA | 0.28
CGTGCACG | -0.054
CTACATAA | 0.127
CTGCGTTC | -0.118
CTCCTAAC | 0.005
CAACTCGG | -0.23
CTAACCTA | 0.0624
ACCCCGGG | -0.374
TACCGCGA | 0.0134
AGAATGAT | 0.253
ACGCGTCT | -0.163
ACACAGGT | -0.142
CTTCATCC | 0.0136
AGTGTATG | 0.167
GGTGCCAC | -0.364
AATGAACA | 0.173
AGCGTAGC | -0.0502
AACGGGAC | -0.294
ATGAGTCG | 0.0577
AAAGTTAA | 0.227
CGCGTGCA | -0.145
CCTGTTCC | -0.216
CACGAGGC | -0.0694

Some of these lines once more (block 2):
Change | binding fitness [natural log]
L52W | -1.51
L31D | -1.36
N42K | -1.26
T37L | -0.944
L38E | -1.51
Q41C | -1.42
E32C | -1.4
N42P | -1.5
E54N | -1.26
A46I | -1.1
M51T | -0.982
